Experimental data from different studies.
Each line is one published result; not all experiments were run side by side.
Cell line: MIA PaCa-2

COC(=O)[C@H]1[C@H]2C[C@H]3O[C@@]4(CCN3C[C@H]2C[C@@H](OC(=O)c2cc(OC)c(OC)c(OC)c2)[C@@H]1OC)C(=O)Nc1cc(OC)c(-c2ccc(C(F)(F)F)cc2)cc14  IC50 (cell growth or viability, crystal violet; 72 h): 6.11 µM
O=C(CNc1nnc(-c2ccccc2)s1)N1CCC(=C2c3ncccc3CCc3cc(Cl)cc(Br)c32)CC1  IC50 (cell growth or viability, SRB): > 120 µM
COC(=O)[C@@H]1[C@@H](OC)[C@H](OC(=O)c2cc(OC)c(OC)c(OC)c2)C[C@@H]2CN3CC[C@]4(O[C@@H]3C(=O)[C@@H]21)C(=O)Nc1cc(OC)c(-c2ccc(C(F)(F)F)cc2)cc14  IC50 (cell growth or viability, crystal violet; 72 h): 1.9 µM
Clc1cc(Br)c2c(c1)CCc1cccnc1C2=C1CCNCC1  IC50 (cell growth or viability, SRB): 18 µM
Nc1ccc(/C=C/C(=O)N2CCc3c(oc4c(-c5ccc(F)cc5)cc(-c5ccc(C(=O)N6CCC(F)(F)CC6)cc5)cc34)C2)cn1  IC50 (cell growth or viability, CCK-8; 72 h): ~2 µM
Cc1c(-c2cccc(C3=NCCN3)c2)oc(-c2cccc(C3=NCCN3)c2)c1C  IC50 (cell growth or viability, SRB): 0.3 µM
Cc1ccc(C(C)C)cc1.[Cl-].[Cl-].[Fe+2].[Ru+2].c1cc[cH-]c1.c1ccc(P(=NCc2ccccn2)(c2ccccc2)[c-]2cccc2)cc1  IC50 (cell growth or viability, MTT; 24 h): > 125 µM
C=C1CCC(O)C(C)=CCC2C1CC2(C)C(=O)C=CC(C)(C)O (stereo not shown)  IC50 (cell growth or viability, CCK-8; 72 h): 11 µM
O=C(CSc1nnc(-c2ccccc2)o1)N1CCC(=C2c3ncccc3CCc3cc(Cl)cc(Br)c32)CC1  IC50 (cell growth or viability, SRB): > 120 µM
COC(=O)[C@@H](Cc1cn(Cc2ccc(C)cc2)nn1)NC(=O)OCC1c2ccccc2-c2ccccc21  IC50 (cell growth or viability, MTS; 72 h): 7.09 µM
COc1ccc2c(c1)C(=C1Nc3ccccc3C1=NOCC(O)CO)C(=O)N2 (stereo not shown)  IC50 (cell growth or viability, MTS; 48 h): 0.68 µM
C=C1CCC(=O)C(C)CCC2C1CC2(C)C(=O)C=CC(C)(C)O (stereo not shown)  IC50 (cell growth or viability, CCK-8; 72 h): 4.07 µM
COC(=O)[C@H]1[C@H]2C[C@H]3O[C@@]4(CCN3C[C@H]2C[C@@H](OC(=O)c2cc(OC)c(OC)c(OC)c2)[C@@H]1OC)C(=O)Nc1cc(OC)c(-c2ccc(C)cc2)cc14  IC50 (cell growth or viability, crystal violet; 72 h): 4.18 µM
C=C1CC[C@@H]2O[C@@]2(C)CC[C@H]2[C@H]1C[C@]2(C)C(=O)/C=C/C(C)(O)COC(C)=O (stereo partly shown)  IC50 (cell growth or viability, CCK-8; 72 h): 2.54 µM
O=C1c2cccc[c]2[Au-]([Cl])([Cl])[N+]1=P(c1ccccc1)(c1ccccc1)c1ccccc1  IC50 (cell growth or viability, MTT; 24 h): 81.8 µM
Cn1c(SCC(=O)N2CCC(=C3c4ncccc4CCc4cc(Cl)cc(Br)c43)CC2)nnc1-c1ccccc1  IC50 (cell growth or viability, SRB): 60 µM
COC(=O)[C@@H](Cc1cn(Cc2ccc(Cl)cc2)nn1)NC(=O)OCC1c2ccccc2-c2ccccc21  IC50 (cell growth or viability, MTS; 72 h): 1.14 µM
COc1ncc(-c2ccc3c(Nc4cc(Oc5cc(F)cc(F)c5)cc(C(=O)O)c4)c(S(=O)(=O)NC4CC4)cnc3c2)c(OC)n1  IC50 (lactate production, measured: lactate in supernatant; 6 h): 0.3 µM
Cc1ccc(C(C)C)cc1.O=C(N=P12CN3CN(CN(C3)C1)C2)c1[c-]cccc1.[Cl-].[Ru+2]  IC50 (cell growth or viability, MTT; 24 h): 54.5 µM
COC(=O)[C@H]1[C@H]2C[C@H]3O[C@@]4(CCN3C[C@H]2C[C@@H](OC(=O)c2cc(OC)c(OC)c(OC)c2)[C@@H]1OC)C(=O)Nc1cc(OC)c(-c2ccc(F)cc2)cc14  IC50 (cell growth or viability, crystal violet; 72 h): 7.04 µM
CCCCCCCCCCCCCCCCCC(=O)Nc1ccn(C2OC(CO)C(O)C2(F)F)c(=O)n1 (stereo not shown)  IC50 (cell growth or viability, resazurin; 48 h): 27.6 µM
Cc1ccc(C(C)C)cc1.F[P-](F)(F)(F)(F)F.O=C(N=P(c1ccccc1)(c1ccccc1)c1ccccc1)c1ccccn1.[Cl-].[Ru+2]  IC50 (cell growth or viability, MTT; 24 h): 2.4 µM

Some of these lines once more:
C=C1CCC(=O)C(C)CCC2C1CC2(C)C(=O)C=CC(C)(C)O (stereo not shown)  IC50 (cell growth or viability, CCK-8; 72 h): 4.07 µM
